Experimental data from different studies.
Each numbered part is a random draw from the data of one study; scales do not carry over between parts. Changes are numbered by the printed parent chain.

Series 1
Target: Sal-like protein 4, full length isoform A (SALL4, Homo sapiens, UniProt Q9UJQ4, residues 1-1053)
UniProt Q9UJQ4, sequence (whole entry, looked up): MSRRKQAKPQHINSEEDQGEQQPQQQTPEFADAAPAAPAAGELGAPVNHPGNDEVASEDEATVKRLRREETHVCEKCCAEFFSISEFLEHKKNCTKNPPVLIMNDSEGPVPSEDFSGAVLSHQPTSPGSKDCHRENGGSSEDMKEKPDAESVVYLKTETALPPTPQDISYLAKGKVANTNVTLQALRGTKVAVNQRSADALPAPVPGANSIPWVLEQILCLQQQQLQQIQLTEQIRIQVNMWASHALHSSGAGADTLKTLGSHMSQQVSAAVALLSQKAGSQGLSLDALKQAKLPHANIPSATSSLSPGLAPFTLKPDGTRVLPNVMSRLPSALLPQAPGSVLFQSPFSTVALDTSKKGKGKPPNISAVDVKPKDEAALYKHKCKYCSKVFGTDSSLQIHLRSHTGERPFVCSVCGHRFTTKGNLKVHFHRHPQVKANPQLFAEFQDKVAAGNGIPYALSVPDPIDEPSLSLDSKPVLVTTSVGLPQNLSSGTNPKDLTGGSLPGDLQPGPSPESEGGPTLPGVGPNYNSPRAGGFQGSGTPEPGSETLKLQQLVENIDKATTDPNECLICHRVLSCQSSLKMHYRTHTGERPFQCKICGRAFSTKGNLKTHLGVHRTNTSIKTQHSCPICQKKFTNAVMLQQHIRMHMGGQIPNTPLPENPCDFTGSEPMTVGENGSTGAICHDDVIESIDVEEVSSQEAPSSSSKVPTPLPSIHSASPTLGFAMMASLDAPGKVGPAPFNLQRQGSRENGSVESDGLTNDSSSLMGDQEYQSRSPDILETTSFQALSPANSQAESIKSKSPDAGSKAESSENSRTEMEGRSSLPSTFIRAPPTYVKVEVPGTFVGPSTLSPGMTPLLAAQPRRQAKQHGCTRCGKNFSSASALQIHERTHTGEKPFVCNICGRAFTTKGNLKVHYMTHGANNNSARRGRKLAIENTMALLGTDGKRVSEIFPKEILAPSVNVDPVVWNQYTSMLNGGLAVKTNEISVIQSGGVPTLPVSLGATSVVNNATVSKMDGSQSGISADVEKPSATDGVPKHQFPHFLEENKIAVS
Method: universal PBM
Form: double-stranded DNA, one strand shown
Medium: in vitro
Tested at: 600 nM
Notes: 8-mer, flanks averaged, mean of replicates
Reading: higher = stronger binding
Quantity: E-score
CATGCTGC: -0.208
GTAGAACA: -0.0376
TACCGTAA: 0.201
AAGATGCC: -0.0981
CCTTACTC: -0.0443
AACGACGG: -0.0636
ACTAGTCT: 0.00575
CCTGCCAC: -0.188
ATGGAGCG: -0.0707
ATTCGGCA: -0.0202
AACGTAGC: -0.04
AACTTTTA: 0.265
AAGCGCAT: -0.0447
CTTAAGAC: 0.0396
TAGTATCA: 0.23
GAGGACAA: -0.0362
CAAGAAAC: 0.0764
CCTAGTCA: -0.051
AATAGCCG: -0.0169
CTAGCTGA: -0.087
TACGCGGA: -0.0005
GATCCACC: -0.198
CCTCCGTC: -0.256
GCTAGTTA: 0.119
ATGTCAGC: -0.184

Series 2
Target: CCNE2, cyclin fold, Cln2 fusion (human)
Method: yeast growth competition, sequencing
Medium: yeast
Notes: weak parent motif
Relative to: not given
Reading: higher = stronger binding
Quantity: normalised enrichment score
Starting sequence: LLGL2 docking peptide (human); KSLKKSLRQSFRR; partner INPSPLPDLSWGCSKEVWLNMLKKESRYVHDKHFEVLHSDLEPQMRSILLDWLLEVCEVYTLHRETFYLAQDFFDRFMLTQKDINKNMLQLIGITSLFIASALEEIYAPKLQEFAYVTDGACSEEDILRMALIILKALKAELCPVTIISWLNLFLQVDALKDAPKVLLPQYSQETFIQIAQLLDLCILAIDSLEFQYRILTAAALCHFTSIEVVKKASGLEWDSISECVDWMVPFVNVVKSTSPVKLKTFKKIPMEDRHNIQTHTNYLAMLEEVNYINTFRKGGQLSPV
S10A: 0.463
R12A: 0.699
K4A: 0.665
K5A: 0.563
Q9A: 1.06
K1A: 0.24

Series 3
Target: RNA binding protein fox-1 homolog 2, RRM domain, GST-SBP tag (RBFOX2, Homo sapiens, UniProt O43251-10, residues 100-194)
Method: RNA Bind-n-Seq
Form: RNA
Medium: in vitro
Tested at: 365 nM
Notes: natural RNA segment, single round, ends assumed
Relative to: no-protein control
Reading: higher = stronger binding
Quantity: RBNS enrichment (R)
Shared flanks, not repeated: GGGAGUUCUACAGUCCGACGAUC … UGGAAUUCUCGGGUGCCAA
Target sequence (chain): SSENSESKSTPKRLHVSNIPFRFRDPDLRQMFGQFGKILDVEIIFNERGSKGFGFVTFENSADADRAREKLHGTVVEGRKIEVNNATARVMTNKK
AAUGGAAUAGAGGUCUUGAUCUUUGGAAUGCAUGCCGGUAAUGUAUUUUACAGUACAUGUUAAUAAUUUAUGUUUAAUAUUUGUAUUUGUGUUCUCUUUUGUUAUUUUAC: 7.7
GUUUAAAGAAAAAUAGUUCACCAAAAUUUAGUAUUAUAUAGUCUGUAUUGUUUGGUUUCAAGUCUCCUAAUUUGAAGUAUGUGGUGUAAUAUUGCAACCCAGUAUAGGUG: 1.28
CAAGCUGGAGUGCAGUGGCGCGAUCUCGGCUCACUGCAACCUCCGCCUCCUGGGUUCAAGCAGUUCUCUUGCCUCAGCCUCCCAAGUAGCUGGGAUGACAGGCGCACACC: 0.19
CAGGAUGCUAGAUUAUUGGCUGGGAGGUGGGCAAGUGGCAGCCCAGCUGAAGCAAGAGGCUGAUUGACUGGCUGCUCACUCAGGCAGGUGGCCUGCCCUGGCAUCCUGUA: 1.42
CCUAACUCAACUGCUUUGCAAGGGGAAAUCAAGCUGGGAGAAUCUUUUUCUGGCCACCUGUGGGGUAGGUUGUCAAACCAAACAGAGCCACCGUGGGACAUCAAGUGGAA: 0.288
UCAGACUUGAGUCUGUUUCCCCUUGAUAGCAUCAUGGUUCUGGCCUUUUCCACAUUCAAUGGAAGCUUCAUGGUUGUUCUGACAGUGAAAGCAGUCCUGGAGAUCCCAUU: 0.276
GAAUUUUUCUAAACAGGAACAGCCAUUUGCAAAAUGGGUUUUCAUAGUGAUUGCAUCAAUUAUAACAUUUAUCAUUAGCAGUUGAGAGCACAUGUUCAUAUAGCAAUGUA: 0.97
AAAGCUAACUAAUUUGCUAAUCACUGAUUUUGCAAAGCUUGUUGUGGAGAUGUGGCUGGACAGGUUUGCCAUCAGAGUGGAUAUACCGUUGUAUUAAAAACAAGAUAAAA: 0.431
AUGAAUACUCUCUAGGAAAUGUGCAAUUUCAUGGUAAUUAUUUUUUAGAAAAGUCAAUUUAAUAAAUUAUCGCCUUUAGCAUUGUAACAGUUUUCAAAAAUAAAGAAAAG: 0.546
ACAGUGCUCCUGGCCACCCAGCCUCUGCUGAGAACCAUUCCUGGGAUUAGAGCUGCCUUUCCCAGGGAAAAAGUGUCGUCUCCCCGACCCUCCCGUGGGCCCUGUGGUGU: 0.408
AGAAAAUAACUACACAUGGAAAUGAAACUAGCUGAAGCCUUUUCUUGUUUUAGCAACUGAAAAUUGUACUUGGUCACUUUUGUGCUUGAGGAGGCCCAUUUUCUGCCUGG: 1.01
AGAGGAGGACUUGGCCUCAAGCCUGAAGAACAAAAGUCUCAGAAAGCAAAGAACAGCAUCACCUUGAUAAAUGUCUUGACUCAGUCUGCGGCUUGUGAUCUGAAAAGUUC: 0.315

Series 4
Target: ABI1, truncated, D143A, DHFR fusion (Arabidopsis thaliana)
Method: DHFR PCA, deep sequencing
Medium: yeast
Notes: methotrexate growth selection, single substitutions
With: (+)-ABA 710 µM
Relative to: wild-type fitted maximum
Reading: higher = stronger binding
Quantity: relative binding score
Starting sequence: PYL1, truncated, DHFR fusion (Arabidopsis thaliana); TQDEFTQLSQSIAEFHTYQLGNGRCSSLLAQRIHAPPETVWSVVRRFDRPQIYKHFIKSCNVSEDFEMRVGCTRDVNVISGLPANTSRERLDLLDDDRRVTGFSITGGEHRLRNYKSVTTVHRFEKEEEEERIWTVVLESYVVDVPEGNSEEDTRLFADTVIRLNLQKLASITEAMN; partner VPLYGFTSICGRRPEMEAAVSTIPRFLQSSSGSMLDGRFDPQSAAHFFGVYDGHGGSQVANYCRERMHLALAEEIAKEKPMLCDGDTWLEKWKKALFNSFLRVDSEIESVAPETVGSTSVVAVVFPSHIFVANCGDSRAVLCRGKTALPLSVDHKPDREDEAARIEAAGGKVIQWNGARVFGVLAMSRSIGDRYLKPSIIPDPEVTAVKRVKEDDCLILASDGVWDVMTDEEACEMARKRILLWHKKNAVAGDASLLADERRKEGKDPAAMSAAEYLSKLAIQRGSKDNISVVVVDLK
S26D: 86%
M68D: 90.9%
G23M: 99.5%
R32Y: 95.1%
D75S: 100%
D65N: 95.5%
S117W: -6.49%
T119P: 7.79%
E14Q: 103%
L112P: 15.5%
V121W: 1.71%
K116F: 61.5%
E174Q: 102%
R98A: 106%
N177V: 102%
R45M: 59.7%
E4K: 93.3%
A175G: 104%

Repeated from above (series 4):
D65N: 95.5%
S117W: -6.49%
T119P: 7.79%
E14Q: 103%
L112P: 15.5%
